Measured values from different studies.
Parts stem from different laboratories: compare values within a part only. Positions count from the first letter of the parent shown.

Block 1
Target: POU domain, class 5, transcription factor 1, POU domain (Pou5f1, Mus musculus, UniProt P20263, residues 131-289)
UniProt P20263, sequence (131-289, looked up): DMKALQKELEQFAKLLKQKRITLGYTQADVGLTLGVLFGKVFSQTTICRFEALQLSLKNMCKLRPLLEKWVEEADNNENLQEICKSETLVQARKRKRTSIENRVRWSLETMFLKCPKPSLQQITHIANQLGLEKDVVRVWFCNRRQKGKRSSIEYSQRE
Technique: Spec-seq
Molecule type: double-stranded DNA, one strand shown
Matrix: in vitro
Concentration: not given
Notes: whole probe, mean of replicates
Reference: not given
Direction: lower = stronger binding
All sequences stand within: GAGTCGTCTCGTCAGCAC … CCGTAGAGCACTCAGGTC
`CCGTTAAT`: “relative binding energy” 0.637 ln ratio.
For `ATGACCAT`, “relative binding energy” read 0.461 ln ratio.
`GCTCTAAT`: “relative binding energy” 0.751 ln ratio.
Under “relative binding energy”, `ATGCACCG` is recorded as 0.227 ln ratio.
`GCCCTAAT`: “relative binding energy” 0.801 ln ratio.
For `AGCCTAAT`, “relative binding energy” read 0.613 ln ratio.
For `ATCCTTAT`, “relative binding energy” read 0.578 ln ratio.
`ACGGTAAT`: “relative binding energy” 0.286 ln ratio.

Block 2
Target: CCNE2, cyclin fold, Cln2 fusion (human)
Technique: yeast growth competition, sequencing
Matrix: yeast
Notes: weak parent motif
Reference: not given
Direction: higher = stronger binding
Starting sequence: CDC6 docking peptide (human); TLKGRRLVFDNQL; partner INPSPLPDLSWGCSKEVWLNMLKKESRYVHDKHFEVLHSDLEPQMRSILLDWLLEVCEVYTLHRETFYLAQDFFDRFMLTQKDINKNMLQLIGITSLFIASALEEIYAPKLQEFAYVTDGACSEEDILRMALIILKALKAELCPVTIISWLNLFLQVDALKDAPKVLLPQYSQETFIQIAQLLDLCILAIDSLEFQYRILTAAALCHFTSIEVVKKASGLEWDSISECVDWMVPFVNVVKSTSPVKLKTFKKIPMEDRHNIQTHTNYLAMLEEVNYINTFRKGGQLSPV
For `R5K F9L`, “normalised enrichment score” read 0.285.
For `R6D`, “normalised enrichment score” read -0.282.
Under “normalised enrichment score”, `G4S` is recorded as -0.93.
Under “normalised enrichment score”, `R6M` is recorded as 0.744.
For `N11C`, “normalised enrichment score” read 0.894.
`R5Y` — result for “normalised enrichment score”: 0.303.
`R6T` — result for “normalised enrichment score”: 0.102.
For `F9Y`, “normalised enrichment score” read 0.586.

Block 3
Substitution: N149A
Target: ABI1, truncated, D143A, DHFR fusion (Arabidopsis thaliana)
Technique: DHFR PCA, deep sequencing
Matrix: yeast
Notes: methotrexate growth selection, single substitutions
Reference: wild-type fitted maximum
Direction: higher = stronger binding
Starting sequence: PYL1, truncated, DHFR fusion (Arabidopsis thaliana); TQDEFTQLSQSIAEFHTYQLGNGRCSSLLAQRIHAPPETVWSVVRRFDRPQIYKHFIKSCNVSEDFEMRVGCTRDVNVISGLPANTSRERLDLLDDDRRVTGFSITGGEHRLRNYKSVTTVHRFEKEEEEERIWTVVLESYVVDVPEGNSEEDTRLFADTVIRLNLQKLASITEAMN; partner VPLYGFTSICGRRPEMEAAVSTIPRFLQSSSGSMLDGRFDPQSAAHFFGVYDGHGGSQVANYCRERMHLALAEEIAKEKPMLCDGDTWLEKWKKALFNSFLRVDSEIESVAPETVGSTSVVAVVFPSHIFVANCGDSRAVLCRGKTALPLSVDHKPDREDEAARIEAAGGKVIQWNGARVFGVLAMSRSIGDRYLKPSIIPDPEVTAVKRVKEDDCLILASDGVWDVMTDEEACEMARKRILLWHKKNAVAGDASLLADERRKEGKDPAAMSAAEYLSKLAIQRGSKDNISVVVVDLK
It gave 47.3% for “relative binding score” (together with: (+)-ABA 1.4 µM).
It gave 63.5% for “relative binding score” (together with: (+)-ABA 58 µM).
For together with: (+)-ABA 0.032 µM: “relative binding score” read 44.3%.
together with: (+)-ABA 17 µM — “relative binding score”: 46.5%.
For together with: (+)-ABA 0.11 µM: “relative binding score” read 54.5%.
For together with: (+)-ABA 2500 µM: “relative binding score” read 86.4%.

Single results of other studies
With COc1cc(C(=O)N2CCC(N3CCN(C)CC3)CC2)ccc1Nc1ncc2c(n1)N(C)c1ccccc1C(=O)N2C the binding was 100% (HIPK1; KINOMEscan; 10 µM; reference: DMSO control, lower = stronger binding).

Excerpt of the above (block 3):
together with: (+)-ABA 17 µM — “relative binding score”: 46.5%.
For together with: (+)-ABA 0.11 µM: “relative binding score” read 54.5%.
For together with: (+)-ABA 2500 µM: “relative binding score” read 86.4%.
